Assay results of several laboratories.
Parts stem from different laboratories: compare values within a part only. Positions count from the first letter of the parent shown.

Set 1 — technique: protein binding microarray; form: double-stranded DNA, one strand shown; matrix: in vitro; tested at: not given; reference: not given; reading: higher = stronger binding
Target: Histone acetyltransferase KAT6A, both winged helices, GST fusion (KAT6A, Homo sapiens, UniProt Q92794, residues 1-181)
Setting: 8-mer, flanks averaged, mean of 2 arrays, mostly near background
Residues (chain): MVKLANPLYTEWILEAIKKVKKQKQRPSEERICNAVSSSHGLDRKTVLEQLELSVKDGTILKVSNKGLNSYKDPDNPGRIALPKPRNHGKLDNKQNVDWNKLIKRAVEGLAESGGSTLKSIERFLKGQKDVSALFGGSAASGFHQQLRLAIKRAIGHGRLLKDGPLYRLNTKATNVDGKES
Oligonucleotide | E-score
CGAGTGGC | -0.00995
AAACCGCG | 0.328
AAAAAAGA | -0.157
ATGGACGC | 0.158
AGAAACAA | -0.0696
AACTGTAT | 0.0121
GATATGCC | 0.0476
ATTGCTGG | -0.123
GATTCTAA | -0.184
CATAAGTA | -0.151
CTAGCGGC | 0.334
AATAGGGG | -0.25
GTGGATGA | -0.229
AGGAGCAC | -0.104
GATATCGC | 0.176
CATTGGTA | -0.0484
ACTTATAC | 0.0203
ACCTCCTA | -0.135
CGGTTTCC | 0.231
CGACTATA | -0.0777
CCATCGTA | -0.00173
AGAACTCT | -0.0794
CAGTGCCG | 0.193
CCCGGCTC | 0.178
CATCCGCA | 0.113

Set 2 — target: CCND2, cyclin fold, Cln2 fusion (human); technique: yeast growth competition, sequencing; matrix: yeast; setting: weak parent motif; reference: not given; reading: higher = stronger binding
Starting sequence: BRCA2 docking peptide (human); PSIKRNLLNEFDR
Change | normalised enrichment score
F11Y | 0.251
K4P | 0.00873
N9G | 0.181
F11D | 0.152
K4V | 0.0943
L7K | 0.126
P1S | -0.0119
R5D | 0.0401
R5L | 0.211
N9M | -0.149
I3C | 0.102
I3N | -0.0422
D12C | 0.12
I3W | -0.0806
S2K | 0.498
K4Y | 0.0419
R13M | 0.197
P1Q | 0.725
S2F | 0.223
S2H | -0.0215
S2R | -0.102
F11C | -0.189
R13G | 0.145
D12E | 0.134
F11P | -0.3

Set 3 — technique: RNA Bind-n-Seq; form: RNA; matrix: in vitro; tested at: 1 µM; setting: whole 134-nt RNA, ends assumed; with: 150 mM KCl; reference: input library; reading: higher = stronger binding
Target: Ras GTPase-activating protein-binding protein 1, RRM domain (G3BP1, Homo sapiens, UniProt Q13283)
Sequence of UniProt Q13283 (whole entry, looked up): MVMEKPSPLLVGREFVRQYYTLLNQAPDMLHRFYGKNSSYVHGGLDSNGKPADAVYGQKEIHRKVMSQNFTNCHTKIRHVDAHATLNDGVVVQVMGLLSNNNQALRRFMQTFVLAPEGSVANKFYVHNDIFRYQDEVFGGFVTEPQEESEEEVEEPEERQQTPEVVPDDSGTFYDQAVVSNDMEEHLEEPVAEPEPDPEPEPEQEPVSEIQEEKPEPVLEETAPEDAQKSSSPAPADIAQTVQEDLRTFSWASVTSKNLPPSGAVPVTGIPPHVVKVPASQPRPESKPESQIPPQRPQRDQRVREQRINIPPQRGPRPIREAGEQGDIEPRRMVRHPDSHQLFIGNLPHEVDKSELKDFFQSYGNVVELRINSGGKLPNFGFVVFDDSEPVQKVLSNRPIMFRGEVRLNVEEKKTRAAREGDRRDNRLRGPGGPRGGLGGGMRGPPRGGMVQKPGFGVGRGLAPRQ
Constant ends, left off below: GGGAGUUCUACAGUCCGACGAUC … UGGAAUUCUCGGGUGUCAAGG
Oligonucleotide | log2 enrichment
AAGUCCUGUGCUACACAUCGUAUGUACCGAAUCGGGUUUUUUUGGGUGGGUUUGGGAAAGUAUUAUGUUACGCCGUUCGGAUCUGCACUU | 0.366
UCCUGUGCUACACAUCGUAUGUACCGAAUCGGGGUUUUUUGGGGUUUUUUGGUUUUUUGGAAAGUAUUAUGUUACGCCGUUCGGAUCUGC | -0.124
ACCAUGCAGGUGGGCAUCUUUGGGAAGUGGGGCAAGGGGGGGAUAGGGAGGGGGGUAACACUUGGGGAACAGGUGGUCCCAGGUCGUUUC | 1.16
UGUGCUACACAUCGUAUGUACCGAAUCGGGCCCCCCCGGGGCCCCCCCGGGCCCCCCCGGGGAAAGUAUUAUGUUACGCCGUUCGGAUCU | -0.62
CACAGACAACACGCACCCACACAGACACAGAGGGAUGGGGUUGGGAUGGGGACAGGGUGCACAGCAGGGCGGGGUAGGACCCCAGCCCCU | 0.0254
CUCAAGUCCUGUGCUACACAUCGUAUGUACCGAAUCGGGCCGGGCCGGGGCCGGAAAGUAUUAUGUUACGCCGUUCGGAUCUGCACUUCC | -0.921
ACCAUGCAGGUGGGCAUCUUUGGGAAGUGGGGCAAGGGGCGGAUAGGGAGGGGGGUAACACUUUGGGAACAGGUGGUCCCAGGUCGUUUC | 0.95
CACAGACAACACGCACCCACACAGACACAGAGGGAAGGGGUUGGGAUGGGGACAGGGUGCACAGCAGGGCGGGGUUGGACCCCAGCCCCU | -0.306
CAAGUCCUGUGCUACACAUCGUAUGUACCGAAUCGGAAAAAAAGGAGGUUUUUGGAAAGUAUUAUGUUACGCCGUUCGGAUCUGCACUUC | -0.107
UCCUGUGCUACACAUCGUAUGUACCGAAUCGGGGUUUUUUUGGGGUGGGGAAAAAGGGGAAAGUAUUAUGUUACGCCGUUCGGAUCUGCA | 0.566
UUCCCCACUUCCUUCCCUCCAGUCCCCACUCACUCACAUGCACACACUAACCUUGGAGCCGAUGGGAUUGAGUGACUGGCACUUGGGACC | 0.523
UCAAGUCCUGUGCUACACAUCGUAUGUACCGAAUCGGGGAAGGGGAAGGAAGGGAAAGUAUUAUGUUACGCCGUUCGGAUCUGCACUUCC | -0.117
UGGGAGGUGGAUUUUGUUUAUUUUUUUAGCUCAUUUCCAGGGGUGGGAAUUUUUUCUUAAUAUGUGUCAUGAAUAAAGUUGUUUUUGAAA | 2.07
GUCCUGUGCUACACAUCGUAUGUACCGAAUCGGGGAAAAAGGGGUUUGGGGUUUGGGGAAAGUAUUAUGUUACGCCGUUCGGAUCUGCAC | 1.68

Set 4 — technique: RNAcompete; form: RNA; matrix: in vitro; tested at: 20 nM; setting: 7-mer, probes averaged, single round; reference: mean of 7-mers; reading: higher = stronger binding
Target: PABPC1L2, full length, GST fusion (mouse, UniProt A0ABA7IW68)
Construct (chain): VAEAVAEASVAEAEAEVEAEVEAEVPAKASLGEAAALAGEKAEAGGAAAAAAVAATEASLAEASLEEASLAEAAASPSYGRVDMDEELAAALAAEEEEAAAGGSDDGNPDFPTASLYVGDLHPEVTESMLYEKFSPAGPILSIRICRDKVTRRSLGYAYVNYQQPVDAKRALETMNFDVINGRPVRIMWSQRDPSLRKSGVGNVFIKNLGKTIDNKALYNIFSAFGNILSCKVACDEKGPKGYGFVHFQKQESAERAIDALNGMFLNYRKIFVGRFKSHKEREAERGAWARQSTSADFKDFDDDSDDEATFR
Oligonucleotide | 7-mer Z-score
GCGGACA | 0.222
GUGAUUG | -0.0863
CUCUAGU | -0.414
AAUGUAA | 0.242
UAAACCU | 0.178
GACUGUU | -0.306
UUCUUAU | -0.347
CAGACGG | 0.439
UUGAAGG | -0.132
UCCUUAU | -0.445
GGUUUAC | -0.273
CAAGAUU | 0.124
CGACAUC | -0.222
UGUCGGC | -0.133
CUUCCGC | -0.483
GUGUACC | -0.286
AAAGACC | 0.936
CCGGAGA | 0.0334
ACGUUCA | -0.22
CUGCCGC | -0.327
ACAUAGG | 0.129
UCUUACG | -0.271
GCGUGCG | -0.161
CCGAAGC | -0.113

Set 5 — technique: RNA Bind-n-Seq; form: RNA; matrix: in vitro; tested at: not given; reference: input RNA pool; reading: higher = stronger binding
Target: RING finger protein unkempt homolog, zinc fingers 1-6, GST-SBP tag (UNK, Homo sapiens, UniProt Q9C0B0, residues 30-357)
Setting: RNA with constant flanks, human-mouse chimeric sites, ends assumed
Constant ends, left off below: GGGAGUUCUACAGUCCGACGAUC … CAACAGAGGAUUGAGCAUCA
Residues (chain): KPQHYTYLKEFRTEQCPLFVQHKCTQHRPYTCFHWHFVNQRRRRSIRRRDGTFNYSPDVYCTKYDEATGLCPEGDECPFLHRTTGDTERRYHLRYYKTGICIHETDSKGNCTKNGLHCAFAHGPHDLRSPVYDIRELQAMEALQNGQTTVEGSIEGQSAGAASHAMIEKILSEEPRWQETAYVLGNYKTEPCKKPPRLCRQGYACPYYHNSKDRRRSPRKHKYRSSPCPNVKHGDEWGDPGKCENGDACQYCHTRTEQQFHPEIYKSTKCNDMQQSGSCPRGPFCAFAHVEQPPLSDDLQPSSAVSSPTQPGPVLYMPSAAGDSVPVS
Oligonucleotide | bound/input enrichment
GUACUGCAGCAGCAGGGCAAGCUGCAGGAAGCUCUGAUGCAUUAUAAGGAGGCUAUUCGAAUCAGUCCUACAUUUGCUGAUGCCUACUCUAAUAUGGGAAACACUCUAAAGGAGAUGCAG | 0.291 ratio
UUUCUACUGCAGCAAACGAUGCUAAGAAUUAAGGAUCCUAAGAAGUCACUGGAUUUUUAUACGAGGGUUCUUGGACUGACCCUCCUGCAAAAAUGUGACUUCCCUGCUAUGAAGUUCUCG | 0.152 ratio
GGGACUGAUUCAUUCCAAGGACAGGCAACCCCAUUUGAUGCCUGGACUGAUGACAGUAUGGAAGGGCCUAGUCAAAAUGUUGAAGCUGAGUCAAUUCAGGAUGCCAUGAGUAUGGAAGAG | 0.455 ratio
UUGGAAGGACCAGAGCCUAAUCAACUGAAACCAUUAGUCAUACAGGCUAUGCCCACCCUAAUAGAAUUAAUGAAAGACCCCAGUGUAGUUGUUCGAGACACAACAGCGUGGACUGUGGGC | 1.82 ratio
UCUUUAAAUGCACUACAACCUUUUCUGACAGUGCUUUCCCUCCCAUAGAUCCACGUUCAAGCUCAAAGAGCAAAGGCUUUGCACGGAGCUCAAACAUCUGAUGAAGAAAGAUUUCUGAGA | 0.408 ratio
CAGGGCAUCAUCUCUCGUGCUGUUAGACACCUUUUUAAGAGUAUUGAUGAGAAAAAGACCUCAGCGAUUAAAAACGGGCUGCCCCCUCCAGAUUUUAAAGUGAAUGCCCAGUUCCUAGAG | 0.72 ratio
AGUACUGCCCGUGCAAAAUUUUGCAACACCAAGCUCACAGCAGCAGCAUCUUAGUCACAGUAGGGUAGUUUUGGGGCUCUGUGGCCAGGGUUUUAUUCACAUGCAGGUUUGGAAAAUGUA | 1.85 ratio
UGACAAGCACGAGCAUCAGCCAUGCCUUUCCUUGACAUACAGAAAAAGCUGGGCAUCAGCCUGGACCGGCACUUUAUGUUCCUAAGCGCAGAACAGCCCUACAAGAUCGCCGCUCGGUGC | 0.109 ratio
GGACAUCUGUCAAAUUGUUAUGUUCCUGUGAAACAAGUGAACACUCUGAUACACUUCAUCUGCUUGUACAUUUAACUGAUAGAGAAACAGAAAUCUAUUAAUCCAAGCAAUGUGUCACUU | 0.147 ratio
ACUCAGAGAUCCACCUCCCAAAGUGCUCUGGAGCUCUGUGUGGCCACCACACCUAACUUGAUGGAUAUAUAUUUUUUUUAAUAUGAAUGAACUCUUGCGUCCAGGGAAGAAAGAUUUGUU | 0.69 ratio
CGCUUGGAUGAGGCGGGUGUCACAGAUGAAGUGCUGGAUUCUGCCAUGCAAGCCUUCCUUCUGGAGGUCAUUGUUAAACAUGGGGAGCCGGCACCUUAUUUAUGUAACAAAGAUCCGUUU | 0.0739 ratio

Repeated from above (set 4):
Oligonucleotide | 7-mer Z-score
CUCUAGU | -0.414
AAUGUAA | 0.242
UAAACCU | 0.178
GACUGUU | -0.306
UUCUUAU | -0.347
CAGACGG | 0.439
UUGAAGG | -0.132
UCCUUAU | -0.445
GGUUUAC | -0.273
CAAGAUU | 0.124
CGACAUC | -0.222
UGUCGGC | -0.133
CUUCCGC | -0.483
GUGUACC | -0.286
AAAGACC | 0.936
